Measurements pooled from the literature.
Compare with care: the assays were run in different laboratories. ± marks the error that the study gave.
BLK: Tyrosine-protein kinase Blk (BLK, Homo sapiens, UniProt P51451)
lecA: PA-I galactophilic lectin (lecA, Pseudomonas aeruginosa, UniProt Q05097)
FLT3 ITD: Receptor-type tyrosine-protein kinase FLT3 (FLT3, Homo sapiens, UniProt P36888, ITD)
GSTO1: Glutathione S-transferase omega-1 (GSTO1, Homo sapiens, UniProt P78417)
MTOR: Serine/threonine-protein kinase mTOR (MTOR, Homo sapiens, UniProt P42345)
Succinate dehydrogenase complex: Succinate dehydrogenase complex (Sus scrofa, UniProt A5GZW8+D0VWV4+Q007T0+Q0QF01)
AGER: Advanced glycosylation end product-specific receptor (AGER, Homo sapiens, UniProt Q15109)
GLO1: Lactoylglutathione lyase (GLO1, Homo sapiens, UniProt Q04760)

CN(C1COC1)C(C)(C)/C=C(\C#N)C(=O)N1CCC[C@H]1Cn1nc(-c2ccc(Oc3ccccc3)cc2F)c2c(N)ncnc21  inhibition (BLK; 1 µM, mean): > 90%
O=C(c1ccc(O)c(O)c1)c1ccc(O)cc1O  inhibition (lecA; binding inhibitor, fluorescence polarization; 4000 µM, 4 mM catechol, together with: Cy5 galactoside tracer): 14 ± 5%
O=C(O)c1n[nH]cc1-c1nc2ccc3[nH]ncc3c2c2c1CCCC2  inhibition (FLT3 ITD; enzyme activity, inhibitor, ADP detection; 0.1 µM): 6%
CC(C)C[C@H](NC(=O)[C@H](CCC(N)=O)NC(=O)[C@H](CCCNC(=N)N)NC(=O)[C@H](CCCNC(=N)N)NC(=O)[C@@H](NC(=O)[C@H](CCCNC(=N)N)NC(=O)[C@@H](NC(=O)[C@H](CO)NC(=O)[C@@H](N)CS)[C@@H](C)O)C(C)C)C(N)=O  inhibition (xanthine oxidase; superoxide radical signal, EPR; 10 µM, 10 min, together with: xanthine): 92.5 ± 1.8%
C/C(=N\NC(=O)c1cccc(S(=O)(=O)N2CCOCC2)c1)c1cc(Cl)ccc1O  inhibition (KDM1B (Homo sapiens, UniProt Q8NB78); enzyme activity, inhibitor, TR-FRET; 10 µM): < 50%
CCOc1c(C(C)(C)O)sc2cnc(Nc3ccc(N4CCC(N5CC6(COC6)C5)CC4)cc3OC)nc12  inhibition (CAMK2D (Homo sapiens, UniProt Q13557); enzyme activity, inhibitor; 0.1 µM): 99%
COc1ccccc1-c1ccncc1C(=O)Nc1nnc(OCc2ccc(Cl)cc2)s1  inhibition (RECQL5 (Homo sapiens, UniProt O94762); ATPase activity, inhibitor, ADP-Glo; up to 30 µM): no inhibition
O=C(NC1CCCCC1)C(c1ccccn1)N(C(=O)CCl)c1ccc(F)cc1 (racemic)  inhibition (GSTO1; probe labelling, gel-based competitive ABPP; MDA-MB-435 soluble proteome; 100 nM, together with: SE-Rh probe): 100%
CC(=O)N[C@H]1NC[C@H](C(=O)O)[C@H](O)[C@@H]1O  inhibition (Sialidase-2 (Homo sapiens, UniProt Q9Y3R4); enzyme activity, inhibitor, fluorescence; 300 µM, pH 6): 56%
FC(F)(F)c1n[nH]cc1-c1nc2ccc3[nH]ncc3c2c2c1CCC2  inhibition (FLT3 ITD; enzyme activity, inhibitor, ADP detection; 0.1 µM): 55%
O=C(CCl)N(CCNC(=O)C(F)(F)F)c1ccc([N+](=O)[O-])cc1  inhibition (GSTO1; probe labelling, gel-based competitive ABPP; MDA-MB-435 soluble proteome; 100 nM, together with: SE-Rh probe): ≥ 98%
Nc1nc(Nc2ccccc2)sc1C(=O)c1ccccc1  inhibition (MAP2K1 (Homo sapiens, UniProt Q02750); enzyme activity, inhibitor; 10 µM): > 90%
O=C(NC1CCCCC1)C(c1cccnc1)N(C(=O)CCl)c1ccc(F)cc1 (racemic)  inhibition (GSTO1; probe labelling, inhibitor, competitive ABPP; MDA-MB-435; 1 µM, 1 h, 10% serum): 100%
N#Cc1c(N)nc(N)nc1OCC1CCCCC1  inhibition (MTOR; enzyme activity, inhibitor, TR-FRET; 20 µM): < 5%
O=C(O[C@@H]1Cc2c(O)cc(O)cc2O[C@@H]1c1ccc(O)cc1)c1cc(O)c(O)c(O)c1  inhibition (maltase, rat; enzyme activity, inhibitor; rat intestinal brush border vesicles; 10 µM): 91.4%
COC(=O)CCSc1nc2n(n1)C(c1cccc(OC)c1)C(C(=O)Nc1cncc(C)c1)=C(C)N2 (centres unmarked)  inhibition (MTOR; enzyme activity, inhibitor, TR-FRET; 10 µM): 98.2%
O=C(Nc1ccccc1Nc1ccccc1)c1cccnc1Br  inhibition (Succinate dehydrogenase complex; enzyme activity, double-antibody sandwich ELISA; 8 µM): 38.1%
CCCCCCCCCCCCCC(=O)N[C@@H](CO)C(=O)N[C@H](C(=O)N[C@@H](CCCNC(=N)N)C(=O)N[C@@H](Cc1ccc(O)cc1)C(=O)N[C@@H](CO)C(=O)NCC(=O)N[C@@H](Cc1c[nH]cn1)C(=O)N[C@@H](COP(=O)(O)O)C(=O)N[C@@H](CC(C)C)C(=O)O)[C@@H](C)CC  inhibition (14-3-3 protein zeta/delta, with GPIb-IX (YWHAZ, Homo sapiens, UniProt P63104); GPIb-IX binding, co-immunoprecipitation; platelets; concentration not given): ~80%
C#CCSc1nc(Sc2nnnn2-c2ccccc2)c2nnn(Cc3ccccc3Cl)c2n1  inhibition (MAOA (Homo sapiens, UniProt P21397); enzyme activity, inhibitor, luciferase; 10 µM): ~40%
COc1ccc(NC(=O)c2cc3ccc(C)cc3s2)cc1  inhibition (AGER; binding to AGE-BSA, competitive ELISA; 100 µM, 60 min): 37%
O=C(CCl)N(CCNC(=O)C(F)(F)F)c1ccccc1[N+](=O)[O-]  inhibition (GSTO1; probe labelling, gel-based competitive ABPP; MDA-MB-435 soluble proteome; 100 nM, together with: SE-Rh probe): 5%
CC[C@H](C)[C@H](NC(=O)[C@H](CCCNC(=N)N)NC(=O)[C@H](CCCCN)NC(=O)[C@@H]1CCCN1C(=O)[C@@H]1CCCN1CCCN(CC[C@H](N)C(=O)O)C[C@H]1O[C@@H](n2cnc3c(N)ncnc32)[C@H](O)[C@@H]1O)C(=O)N[C@@H](C)C(N)=O  inhibition (NNMT (Homo sapiens, UniProt P40261); enzyme activity, inhibitor; 33 µM): < 20%
Clc1ccc2ccc3[n+](c2c1)[Ir-3]12([c]4ccccc4-3)([c]3ccccc3-c3ccc4ccc(Cl)cc4[n+]31)[n+]1ccccc1-c1cccc[n+]12.F[P-](F)(F)(F)(F)F  inhibition (Cyclin-dependent kinase 9, with cyclin T1 (CDK9, Homo sapiens, UniProt P50750); kinase activity; 10 nM): 55.9%
O=C(CCl)N(CCNC(=O)C(F)(F)F)c1ccc(Cl)cc1  inhibition (GSTO1; competitive ABPP; MDA-MB-435; 1 µM, 12 h, 10% serum): 65%
NS(=O)(=O)c1ccc(/N=N/c2cc(C(=O)O)c(O)c3ccccc23)cc1  inhibition (GLO1; enzyme activity, inhibitor; 25 µM): 77.5%
COc1ccc(NC(=O)c2cc3ccc(N(C)C)cc3s2)cc1  inhibition (AGER; binding to AGE-BSA, competitive ELISA; 100 µM, 60 min): 59%
Cc1ccc(N(CCNC(=O)C(F)(F)F)C(=O)CCl)cc1  inhibition (GSTO1; probe labelling, gel-based competitive ABPP; MDA-MB-435 soluble proteome; 100 nM, together with: SE-Rh probe): 15%
NS(=O)(=O)c1ccc(/N=N/c2ccc(O)c3ncccc23)cc1  inhibition (GLO1; enzyme activity, inhibitor; 25 µM): 100%
COc1ccc(NC(=O)c2cc3ccc(Cl)cc3s2)c(OC)c1  inhibition (AGER; binding to AGE-BSA, competitive ELISA; 100 µM, 60 min): 99%
COc1cc(C(=O)NC2CCC(N3CCN(CC4CCC5(CCCC5)C4)CC3)CC2)c(F)cc1Nc1ncc2c(n1)N(C1CCCC1(F)F)CC(F)(F)C(=O)N2C (centres unmarked)  inhibition (BLK; cell-free assay, TR-FRET; 10 µM): 0.69%
COc1ncccc1C(=O)Nc1ccccc1Nc1ccccc1  inhibition (Succinate dehydrogenase complex; enzyme activity, double-antibody sandwich ELISA; 1 µM): 33%
CC(=O)c1ccc(O)c(O)c1  inhibition (lecA; binding inhibitor, fluorescence polarization; 4000 µM, 4 mM catechol, together with: Cy5 galactoside tracer): 11 ± 3%
Oc1ccc(CCC(O)CC(O)CCc2ccc(O)cc2)cc1 (centres unmarked)  inhibition (Maob (Rattus norvegicus, UniProt P19643); enzyme activity, inhibitor; 20 µg/mL): 17.8 ± 1.2%
O=C(Nc1ccc(F)cc1)c1cc2ccc(Cl)cc2s1  inhibition (AGER; binding to AGE-BSA, competitive ELISA; 100 µM, 60 min): 0%
O=C(Nc1ccccc1Nc1ccccc1)c1cccnc1C(F)(F)F  inhibition (Succinate dehydrogenase complex; enzyme activity, double-antibody sandwich ELISA; 2 µM): 33.6%
N#Cc1ccc(NC(=O)c2cc3ccc(Cl)cc3s2)cc1  inhibition (AGER; binding to AGE-BSA, competitive ELISA; 100 µM, 60 min): 26%
Oc1ccc(/N=N/c2ccccc2)c2cccnc12  inhibition (GLO1; enzyme activity, inhibitor; 25 µM): 82.8%
Cc1ccc(NC(=O)c2cc3ccc(Cl)cc3s2)cc1  inhibition (AGER; binding to AGE-BSA, competitive ELISA; 100 µM, 60 min): 9%
CC(C)(C)NC(=O)[C@@H]1C[C@@H]2CCCC[C@@H]2CN1C[C@@H](OC(=O)CCC(=O)OC[C@H](O)[C@H]1OC(=O)C(O)=C1O)[C@H](Cc1ccccc1)NC(=O)[C@H](CC(N)=O)NC(=O)c1ccc2ccccc2n1  inhibition (Sodium-dependent vitamin C transporter (Canis lupus familiaris, UniProt A8CX01); ascorbic acid uptake; MDCK-MDR1; 200 µM, together with: [14C]ascorbic acid 23.5 µM): 51%
O=C(Nc1cc(Cl)ccc1O)c1nn2c(C(F)(F)F)cc(-c3cc(Br)cs3)nc2c1Br  inhibition (Hepatitis A virus cellular receptor 2, part phosphatidylserine interaction (Homo sapiens, UniProt Q8TDQ0); phosphatidylserine binding, flow cytometry; apoptotic Jurkat; 2.5 µM): inhibited
O=C(Nc1ccccc1Nc1ccccc1)c1cccnc1F  inhibition (Succinate dehydrogenase complex; enzyme activity, double-antibody sandwich ELISA; 8 µM): 10.7%
O=C(O[C@@H]1Cc2c(O)cc(O)cc2O[C@@H]1c1ccc(O)c(O)c1)c1cc(O)c(O)c(O)c1  inhibition (maltase, rat; enzyme activity, inhibitor; rat intestinal brush border vesicles; 10 µM): 84.7%
O=C(Nc1ccccc1Nc1ccccc1)c1nccnc1Cl  inhibition (Succinate dehydrogenase complex; enzyme activity, double-antibody sandwich ELISA; 1 µM): 14.4%
NS(=O)(=O)c1ccc(/N=N/c2ccc(O)cc2)cc1  inhibition (GLO1; enzyme activity, inhibitor; 25 µM): 94.2%
